Measured values of several laboratories.
A part holds a random share of what one study measured. Changes are numbered by the printed parent chain.

Sample 1
Target: HLA class I histocompatibility antigen, A alpha chain, allele A*80:01 (Homo sapiens, UniProt P04439)
Observed: peptide-MHC binding
Molecule type: peptide
Concentration: concentration not given
| Molecule | binding |
| --- | --- |
| RTFDRFFEE | inactive |
| NRDVSFQDL | inactive |
| YSTVRDLFL | inactive |
| LITEQFLCY | active |
| ISLWGSLLK | inactive |

Sample 2
Target: RNA binding protein fox-1 homolog 2, RRM domain, GST-SBP tag (RBFOX2, Homo sapiens, UniProt O43251-10, residues 100-194)
Technique: RNA Bind-n-Seq
Molecule type: RNA
Medium: in vitro
Concentration: 365 nM
Setting: natural RNA segment, single round, ends assumed
Baseline: no-protein control
Reading: higher = stronger binding
Residues (chain): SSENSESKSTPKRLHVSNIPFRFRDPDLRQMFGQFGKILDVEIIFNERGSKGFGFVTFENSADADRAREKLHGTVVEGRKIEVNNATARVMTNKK
| Sequence | RBNS enrichment (R) |
| --- | --- |
| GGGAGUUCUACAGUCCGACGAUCGCAGGCUGUCGUUCCGGUUAUGUUGUGUAAGUCAACUCUUCAGCCUCAUUCACUGUCCUGGCUUUUAUUUAAAGAAAAAAAAGGCAGUAUUCCCUUUUUAAAUGAGCUUUUGGAAUUCUCGGGUGCCAA | 0.63 |
| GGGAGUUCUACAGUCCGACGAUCUUCUUCCCUUUUAAAAUUGUGUAAACUGCAAAUUAUAAUAUAAUUUGAAUUUAUGAUUAUUUUCCAGAAGAAAUCUUGUAAACCUGUGGAUACUCAUUAAUUCUUUUGUUUGGAAUUCUCGGGUGCCAA | 0.644 |
| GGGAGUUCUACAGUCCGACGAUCCAAGUCAACCAAUGUAGAAAGCUUUGCUUAUGGUAAUAAAAAUGGCUCAUACUUAUAUAGCACUUACUUUGUUGCAAGUACUGCUGUAAAUAAAUGCUUUAUGCAAACCAUGGAAUUCUCGGGUGCCAA | 0.324 |
| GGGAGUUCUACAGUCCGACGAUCUACUUCGUAUGUUAAUAGUUGUUCUGAUAAAUCAUGCAAUUAAAGUAAAGUGAUGCAACAUCUUGUAUACUGAUAGUGGUUAUUGCCAGUCAUGCUUGAUUACCUGCAUUUGGAAUUCUCGGGUGCCAA | 0.373 |
| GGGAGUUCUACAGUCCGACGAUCCAUCCAGGCCCCCACCUUCUCGGCUUCUGGUUUUUCUUUCUUUUUGGUAGAACACAACAUCUACCAUUCAGUUAAACCUUCUUUAUCUCCUCCUUUGGCAUCCAUUUUUCUGGAAUUCUCGGGUGCCAA | 0.653 |
| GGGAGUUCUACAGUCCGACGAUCUCCCUGGGUCCUGGGUCAGUUUGACCCUAGCCCUGGGGUGAGGCAAGCCCCCUCCUAUGAGGAUGAGCAAAAAUACUACUCUCUUCGCCCUGAGUUGCUUUCUGGAUCUGUGGAAUUCUCGGGUGCCAA | 0.214 |
| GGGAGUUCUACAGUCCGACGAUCGGGCGGGCCAGCGGGCACCAGGACUGGUCUCCUCUGCGCUCUGAUUUGUUGACUGAAACUGUAAGGGGAUCUCUCCCAGAGACUUGACAUUUUAGCUUUAUGUGUCUUAAUGGAAUUCUCGGGUGCCAA | 0.841 |
| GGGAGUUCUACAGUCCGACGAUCACAGGCCUGGUGUGGUUUGUUCUGGUCUCAUUCAGGUUUAGGGGUGCUCCUGCACAGGCUUCUGCACCUCCAAGCACAGCUGAUCUGAUCCAAGGCUGUUGGGCCUCUCAUGGAAUUCUCGGGUGCCAA | 0.336 |

Sample 3
Target: CCNB1, cyclin fold, Cln2 fusion (human)
Technique: yeast growth competition, sequencing
Medium: yeast
Setting: strong parent motif
Baseline: not given
Reading: higher = stronger binding
Parent: viral docking peptide; KGVKRKLFAEDSS
| Variant | normalised enrichment score |
| --- | --- |
| KGAKRKLFAEDSS [V3A] | 0.849 |
| KGVKRKLFAEDVS [S12V] | 2.65 |
| KGVKRKWFAEDSS [L7W] | -0.331 |
| KGVKRKLFAEPSS [D11P] | 1.56 |

Sample 4
Target: UBE2D3 UBC core domain (UniProt P61077)
Chain of UniProt P61077 (whole entry, looked up): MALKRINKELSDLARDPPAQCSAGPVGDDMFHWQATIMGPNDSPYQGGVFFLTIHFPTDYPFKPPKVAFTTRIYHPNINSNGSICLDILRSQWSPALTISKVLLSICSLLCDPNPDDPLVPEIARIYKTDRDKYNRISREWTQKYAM
Technique: yeast two-hybrid
Medium: yeast
Setting: mostly zero background
Baseline: not given
Reading: higher = stronger interaction
B1: SH3RF1 RING domain (UniProt Q7Z6J0); chain DESALLDLLECPVCLERLDASAKVLPCQHTFCKRCLLGIVGSRNELRCPECRTLVGSGVEEL
B2: RBCK1 RING domain (UniProt Q9BYM8); chain SLVLNTEPAECPVCYSVLAPGEAVVLRECLHTFCRECLQGTIRNSQEAEVSCPFIDNTYSCSGKLLEREIK
| Molecule | lacZ reporter activity |
| --- | --- |
| AMYLQENGIDCPKCKFSYALARGGCMHFHCTQCRHQFCSGCYNAFYAKNKC (RNF31 RING domain (UniProt Q96EP0)) | 0 |
| B1 (SH3RF1 RING domain) | 0 |
| B2 (RBCK1 RING domain) | 0 |
| KETIKKTTKPCPRCHVPVEKNGGCMHMKCPQPQCRLEWCWNCGCEWNRVCMG (PRKN RING domain (UniProt O60260)) | 0 |

Some of these lines once more (sample 2):
| Sequence | RBNS enrichment (R) |
| --- | --- |
| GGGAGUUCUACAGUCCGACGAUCUUCUUCCCUUUUAAAAUUGUGUAAACUGCAAAUUAUAAUAUAAUUUGAAUUUAUGAUUAUUUUCCAGAAGAAAUCUUGUAAACCUGUGGAUACUCAUUAAUUCUUUUGUUUGGAAUUCUCGGGUGCCAA | 0.644 |
| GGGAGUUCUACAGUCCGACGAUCCAAGUCAACCAAUGUAGAAAGCUUUGCUUAUGGUAAUAAAAAUGGCUCAUACUUAUAUAGCACUUACUUUGUUGCAAGUACUGCUGUAAAUAAAUGCUUUAUGCAAACCAUGGAAUUCUCGGGUGCCAA | 0.324 |
| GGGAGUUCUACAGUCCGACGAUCUACUUCGUAUGUUAAUAGUUGUUCUGAUAAAUCAUGCAAUUAAAGUAAAGUGAUGCAACAUCUUGUAUACUGAUAGUGGUUAUUGCCAGUCAUGCUUGAUUACCUGCAUUUGGAAUUCUCGGGUGCCAA | 0.373 |
